Assay results gathered from unrelated publications.
Protocols differ between the studies behind these lines. “And” joins repeats or separate records; there may be more than shown. ± gives the spread as reported.

Structure (SMILES) = Cc1cc(Nc2ncc(Cl)c(Nc3ccccc3S(=O)(=O)C(C)C)n2)c(OC(C)C)cc1C1CCNCC1; system = patients with advanced solid tumours; setting = dose not given, together with: gemcitabine and cisplatin; endpoint = overall survival; result = 12 months
Structure (SMILES) = OC(CCN1CCCCC1)(c1ccccc1)C1CC2C=CC1C2 (stereo not drawn); assay = resting-state EEG; system = healthy elderly humans; setting = oral, 2 mg, eyes open, LS mean; endpoint = power, Delta EEG, Pz-O1; result = 7 µV²
Structure (SMILES) = Cc1n[nH]c2ccc(-c3cc(OC[C@@H](N)Cc4ccccc4)cnc3-c3ccoc3)cc12; assay = kinase binding, competitor, MIB/MS competition, refers to: MKK2; system = Candida albicans cell lysate; setting = 10 µM; scale = reference: DMSO; endpoint = log2 fold change; result = -1.11
Structure (SMILES) = CCN1CCN(Cc2ccc(Nc3ncc(F)c(-c4cc(F)c5nc6n(c5c4)[C@H](C)CCC6)n3)nc2)CC1; system = human advanced solid tumours; setting = 500 mg, phase Ia monotherapy RECIST 1.1; endpoint = non-CR/non-PD; result = 0%
Structure (SMILES) = C=C1CC[C@H](OCCCNC(=O)CCOCCOCCOCCOCCOCCOCCOCCOCCOCCOCCOCCOCCOCCOCCOCCOCCOCCOCCOCCOCCOCCOCCOCCOCCOCCOCCOCCOCCOCCOCCOCCOCCOCCOCCOCCOCCNC(=O)CCN2C(=O)CC(SC[C@H](NC(=O)[C@H](CCCNC(=N)N)NC(=O)[C@@H]3CCCN3C(=O)[C@H](CCC(N)=O)NC(=O)[C@H](CC(C)C)NC(=O)[C@H](CCCCN)NC(=O)[C@H](C)NC(=O)[C@@H]3CCCN3C(=O)[C@@H]3CCCN3C(=O)[C@H](CCCCN)NC(=O)[C@H](CCCCN)NC(=O)[C@H](CO)NC(=O)[C@H](CCC(=O)O)NC(=O)[C@H](CCCCN)NC(=O)[C@H](CCCNC(=N)N)NC(=O)[C@H](CCC(N)=O)NC(=O)[C@H](CCC(N)=O)NC(=O)[C@@H](NC(=O)[C@H](CCCNC(=N)N)NC(=O)[C@H](CCC(N)=O)NC(=O)[C@H](Cc3c[nH]cn3)NC(=O)[C@H](CCC(=O)O)NC(=O)[C@@H]3CCCN3C(=O)[C@H](CO)NC(=O)[C@H](CC(C)C)NC(=O)[C@H](Cc3ccccc3)NC(=O)[C@H](CNC(=O)CCCCCCC)NC(=O)[C@H](CO)NC(=O)CN)C(C)C)C(=O)O)C2=O)C/C1=C/C=C1\CCC[C@]2(C)[C@@H]([C@H](C)CCCC(C)(C)O)CC[C@@H]12 (stereo partly drawn); assay = real-time RT-PCR, refers to: Tnf and Ccl2; system = mice, LLC tumour-bearing, gastrocnemius/plantaris muscle; setting = daily or every other day; scale = reference: pair-fed; endpoint = mRNA level; result = no effect
Structure (SMILES) = Cc1ccc(NC(=O)c2ccnc(C(F)(F)F)c2)cc1-c1cc(OCCO)nc(N2CCOCC2)c1; system = MAPK-altered advanced solid tumour patients; setting = dose not given, single-agent dose escalation; endpoint = overall response rate; result = 2.3%
Structure (SMILES) = COc1cc2c(c(O)c1OC)C(=O)c1c(cc(C)c(O[C@@H]3O[C@H](CO)[C@@H](O)[C@H](O)[C@H]3O)c1OC)C2=O; tested on = HK-2 co-cultured with HepaRG; assay = MTT; setting = 16.67 µM, 48 h; scale = reference: untreated control; endpoint = cell viability; result = 101 ± 4.14%
Structure (SMILES) = Nc1ncnc2c1ncn2[C@@H]1O[C@H](CO)[C@@H](O)[C@@H]1O; tested on = THP-1; assay = pyroptotic LDH release; setting = 2 µM, 40 min, together with: LPS then nigericin; endpoint = inhibition; result = -14.6%
Structure (SMILES) = Cn1cc(-c2ccc(-c3cncc(Cl)c3N3CCC4(CCNC4=O)CC3)cc2)cn1; tested on = COLO 205; assay = gene expression, microarray, refers to: NUF2 mRNA; setting = concentration not given, 6 h; scale = reference: untreated cells; endpoint = log2 fold change; result = -2.22
Structure (SMILES) = Cc1cc([C@H]2C[C@H]3[C@@H](CF)SC(N)=N[C@@]3(c3ccc(F)cc3F)CO2)on1; assay = refers to: Aβx-42; system = Mus musculus wild-type, brain; setting = subcutaneous, 30 mg/kg, 5 h; endpoint = Aβ42 level; result = 0.52 ng/g
Structure (SMILES) = N#Cc1ccc2c(-c3ccncc3)c(-c3ccc(F)cc3)nn2c1; assay = kinase binding, competitor, MIB/MS competition, refers to: YCK2; system = Candida albicans cell lysate; setting = 100 nM; scale = reference: DMSO; endpoint = log2 fold change; result = -1.95
Structure (SMILES) = Cc1oncc1C(=O)Nc1ccc(C(F)(F)F)cc1; assay = refers to: dihydroorotate; system = female CD-1 mice, pooled urine; setting = oral, 30 mg/kg daily, 0-8 h after dose 10; endpoint = DHO concentration; result = 4180 ± 382 µM
Structure (SMILES) = N#Cc1ccc2c(CN3CCOCC3)cc(-c3ccc([C@H]4CCC(=O)N4)cc3)nc2c1; assay = decreased, refers to: Il6; system = BTBR ob/ob mice, male, diabetic wound model, wound tissue; setting = dose not given, 21 days; scale = reference: vehicle; endpoint = mRNA level; result = decreased
Structure (SMILES) = CC(C)c1c(C(=O)Nc2ccccc2)c(-c2ccccc2)c(-c2ccc(F)cc2)n1CC[C@@H](O)C[C@@H](O)CC(=O)O; system = cynomolgus monkey, female, serum; setting = 40 mg/kg or 25 mg/kg, day 86, 2064 h; endpoint = LDL-C; result = 43.3 mg/dL
Structure (SMILES) = O=C(O)c1cc(N2N=C(C(F)(F)F)/C(=C/c3ccc(-c4ccccc4)o3)C2=O)ccc1Cl; system = platelets, Ero1α knock-out, mouse; setting = 3 to 10 µM; endpoint = platelet aggregation; result = inhibited
Structure (SMILES) = CC(=O)OC(C)C[N+](C)(C)C (stereo not drawn); system = rat colon ex vivo; setting = 1 nM to 10 µM; endpoint = contraction AUC; result = increased
Structure (SMILES) = N=C(N)NCCC[C@H](NC(=O)[C@H](CCCNC(=N)N)NC(=O)[C@H](CCCCN)NC(=O)[C@H](CCC(N)=O)NC(=O)[C@H](CCCCN)NC(=O)[C@H](Cc1ccc(O)cc1)NC(=O)[C@@H](N)CCCCN)C(=O)N[C@@H](CO)C(=O)N[C@@H](Cc1ccc(O)cc1)C(=O)N[C@@H](CCCCN)C(=O)O; system = human, dentin hypersensitivity patients; setting = topical to tooth, 10 µg/tooth repeated, day 36, phase 1/2a trial; scale = direction not given; endpoint = median change in Schiff score; result = -1
Structure (SMILES) = CN[C@@H]1COc2c(S(=O)(=O)NC(=O)Nc3c4c(cc5c3CCC5)CCC4)cnn2C1; assay = refers to: IL-1β; system = human participants, whole blood ex vivo; setting = 900 mg twice daily, multiple doses, 156 h, together with: LPS/ATP; scale = reference: baseline; endpoint = inhibition; result = 99.3%
Structure (SMILES) = Cc1cc(C)c(CNC(=O)c2cc(Cl)c3c(c2C)O[C@@](C)([C@H]2CC[C@H](N(C)C)CC2)O3)c(=O)[nH]1; assay = IWG criteria, CR or PR; system = relapsed/refractory AITL patients; setting = dose not given; endpoint = overall response rate; result = 64%
Structure (SMILES) = COc1cc2cc(-c3ccc(CC(=O)Nc4cc(C(C)(C)C(F)(F)F)no4)cn3)cnc2cc1OC; system = human RET-altered advanced solid tumours; setting = 75 mg, phase I other tumours, RECIST 1.1; endpoint = disease control rate; result = 10%
Structure (SMILES) = CC(=O)c1c(C)cc2cc(O)cc(O[C@@H]3O[C@H](CO)[C@@H](O)[C@H](O)[C@H]3O)c2c1O; tested on = HK-2 co-cultured with HepaRG; assay = MTT; setting = 66.67 µM, 48 h; scale = reference: untreated control; endpoint = cell viability; result = 98.4 ± 3.92%
Structure (SMILES) = CC(C)[C@H](NC(=O)[C@H](Cc1ccc(O)cc1)NC(=O)[C@H](Cc1ccc(O)cc1)NC(=O)[C@@H]1CCCN1C(=O)[C@H](CCC(=O)O)NC(=O)[C@H](CCC(=O)O)NC(=O)[C@H](Cc1c[nH]c2ccccc12)NC(=O)[C@@H]1CCCN1C(=O)[C@@H](NC(=O)[C@H](CCC(N)=O)NC(=O)c1ccc2c(c1)C(=O)OC21c2ccc(O)cc2Oc2cc(O)ccc21)C(C)C)C(=O)N[C@H](C(=O)N[C@@H](CCCCN)C(=O)N[C@@H](CCCCN)C(=O)N[C@@H](CO)C(=O)N[C@@H](CO)C(=O)NCC(=O)NCC(N)=O)C(C)C; assay = surgeon confidence in nerve; system = human head and neck surgery, nerves; setting = 500 mg, not improved; scale = reference: white light; endpoint = share of responses; result = 35.7%
Structure (SMILES) = Nc1ccc(O)cc1; tested on = THP-1; assay = pyroptotic LDH release; setting = 2 µM, 40 min, together with: LPS then nigericin; endpoint = inhibition; result = 10.8%
Structure (SMILES) = NCC(=O)Nc1cncc(-c2nn3c(=O)cc(N4CCNCC4)nc3s2)c1; assay = ADP-induced platelet aggregation, light transmission aggregometry; system = human stable CAD patients on aspirin, platelets ex vivo; setting = 0.04 mg/kg, 60 min post dose, together with: 20 µM ADP; scale = reference: placebo difference; endpoint = inhibition of platelet aggregation; result = 21.8%
Structure (SMILES) = COc1ccc(C(=O)Nc2ccc(-n3cc(CNc4nc(OC)nc(OC)n4)nn3)cc2)cc1; assay = MTT; system = normal colonocytes, rat; setting = 72 h; endpoint = maximum non-toxic concentration; result = 1.49 ± 0.19 nM
Structure (SMILES) = C[C@H]1C[C@H]2CSC(N)=N[C@@]2(c2nc(NC(=O)c3ccc(OC(F)F)cn3)cs2)CO1; assay = refers to: total Aβ; system = healthy adults, plasma; setting = 200 mg single dose, 24 h post-dose; scale = reference: placebo; endpoint = percent change from baseline; result = -64.2%
Structure (SMILES) = N#Cc1ccn2c(-c3ccncc3)c(-c3ccc(F)cc3)nc2c1; assay = kinase binding, competitor, MIB/MS competition, refers to: RIM8; system = Candida albicans cell lysate; setting = 100 nM; scale = reference: DMSO; endpoint = log2 fold change; result = -0.0882
Structure (SMILES) = O=C(COc1ccc(Cl)cc1)NC12CC(c3nnc([C@H]4C[C@@H](OC(F)(F)F)C4)o3)(C1)C2; assay = refers to: ATF4; system = PBMC ex vivo stimulated, human ALS patients; setting = 200 mg, D28 predose; scale = reference: baseline; endpoint = protein level change; result = -79.1%
Structure (SMILES) = CC(C)NCC(O)c1ccc(O)c(O)c1 (stereo not drawn); system = ventricular cardiomyocytes, C57BL/6 mouse; setting = dose not given, 0.368 s; endpoint = sarcomere length; result = 1.72 µm
Structure (SMILES) = CCOc1ccc(Cc2cc([C@@H]3S[C@H](CO)[C@@H](O)[C@H](O)[C@H]3O)c(OC)cc2C)cc1; system = human; setting = dose not given, multiple ascending dose; endpoint = urinary glucose excretion; result = 76.9 g/day
Structure (SMILES) = C[C@H]1O[C@@H](O[C@H]2CC[C@@]3(C)[C@@H](CC[C@]4(C)[C@@H]3C=C[C@]35OC[C@@]6(CCC(C)(C)C[C@H]63)[C@@H](O)C[C@]54C)[C@]2(C)CO)[C@H](O)[C@@H](O[C@@H]2O[C@H](CO)[C@@H](O)[C@H](O)[C@H]2O)[C@H]1O; assay = confocal immunostaining; system = mice, normal diet, liver; setting = dose not given, high dose; endpoint = SIRT1 immunofluorescence; result = 35.3% and 33.9% and 47.1%
Structure (SMILES) = Cc1cc(F)cc2c(CCC(=O)N[C@@H]3C(=O)NC[C@H]3O)c(-c3ccc(F)cc3)[nH]c12; system = APOL1 G2 mice, IFNγ-induced; setting = 30 mg/kg twice daily, day 8; endpoint = urine albumin/creatinine ratio; result = 1230 µg/mg and 1510 µg/mg and 6310 µg/mg and 968 µg/mg and 2720 µg/mg
Structure (SMILES) = O=C(O)CNC(=O)Cc1ccccc1; system = ventricular cardiomyocytes, C57BL/6 mouse; setting = dose not given, 0 s; endpoint = sarcomere length; result = 1.72 µm

Some of these lines once more:
Structure (SMILES) = CC(C)NCC(O)c1ccc(O)c(O)c1 (stereo not drawn); system = ventricular cardiomyocytes, C57BL/6 mouse; setting = dose not given, 0.368 s; endpoint = sarcomere length; result = 1.72 µm
Structure (SMILES) = CCOc1ccc(Cc2cc([C@@H]3S[C@H](CO)[C@@H](O)[C@H](O)[C@H]3O)c(OC)cc2C)cc1; system = human; setting = dose not given, multiple ascending dose; endpoint = urinary glucose excretion; result = 76.9 g/day
Structure (SMILES) = C[C@H]1O[C@@H](O[C@H]2CC[C@@]3(C)[C@@H](CC[C@]4(C)[C@@H]3C=C[C@]35OC[C@@]6(CCC(C)(C)C[C@H]63)[C@@H](O)C[C@]54C)[C@]2(C)CO)[C@H](O)[C@@H](O[C@@H]2O[C@H](CO)[C@@H](O)[C@H](O)[C@H]2O)[C@H]1O; assay = confocal immunostaining; system = mice, normal diet, liver; setting = dose not given, high dose; endpoint = SIRT1 immunofluorescence; result = 35.3% and 33.9% and 47.1%
Structure (SMILES) = Cc1cc(F)cc2c(CCC(=O)N[C@@H]3C(=O)NC[C@H]3O)c(-c3ccc(F)cc3)[nH]c12; system = APOL1 G2 mice, IFNγ-induced; setting = 30 mg/kg twice daily, day 8; endpoint = urine albumin/creatinine ratio; result = 1230 µg/mg and 1510 µg/mg and 6310 µg/mg and 968 µg/mg and 2720 µg/mg
Structure (SMILES) = O=C(O)CNC(=O)Cc1ccccc1; system = ventricular cardiomyocytes, C57BL/6 mouse; setting = dose not given, 0 s; endpoint = sarcomere length; result = 1.72 µm
